Experimental data collected from several papers.
Each numbered part is a random draw from the data of one study; scales do not carry over between parts. Positions count from the first letter of the parent shown.

Series 1 — method: DHFR PCA, dose-response; matrix: yeast; notes: Hill fit, not affinity; together with: (+)-ABA, dose series; direction: lower = more sensitive; quantity: ABA EC50
Target: ABI1, truncated, D143A, DHFR fusion (Arabidopsis thaliana, UniProt P49597)
Starting sequence: PYL1, truncated, DHFR fusion (Arabidopsis thaliana, UniProt Q8VZS8); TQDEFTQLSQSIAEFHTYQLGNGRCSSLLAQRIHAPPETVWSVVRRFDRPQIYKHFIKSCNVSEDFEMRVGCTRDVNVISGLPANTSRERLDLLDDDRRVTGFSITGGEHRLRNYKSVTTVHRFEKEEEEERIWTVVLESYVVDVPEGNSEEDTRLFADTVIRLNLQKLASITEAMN
T101L: 25.4 µM
Y141C: 1140 µM
G108F: 1930 µM
G108P: 2330 µM
S87R: 2.08 µM
Q2F: 18.3 µM
N85Y: 51.3 µM

Series 2 — target: CREB5, bZIP domain (human); method: DHFR protein complementation; matrix: yeast; reference: wild-type JUN-FOS pair; direction: higher = stronger binding; quantity: binding fitness
Notes: single substitutions, most at no-binding floor
Starting sequence: JUN, bZIP domain (human); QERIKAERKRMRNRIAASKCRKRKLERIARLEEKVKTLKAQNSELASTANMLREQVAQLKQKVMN; partner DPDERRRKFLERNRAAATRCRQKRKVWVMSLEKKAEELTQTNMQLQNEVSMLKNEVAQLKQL
A29S: -0.382 natural log
M51G: -0.391 natural log
M51A: -0.154 natural log
L38C: -1.38 natural log
A29M: -0.613 natural log
L45K: -1.3 natural log
A29H: -0.29 natural log
N42F: -1.07 natural log
V56I: -0.105 natural log
Q55T: -0.443 natural log
E32Y: -0.754 natural log
K34P: -1.41 natural log

Series 3 — method: protein-binding microarray; form: double-stranded DNA, one strand shown; matrix: in vitro; concentration: 2540 nM top; notes: 60-bp whole probe; together with: salmon DNA 0.4 mg/ml; reference: random background probes; direction: higher = stronger binding; quantity: fitted relative affinity; constant ends, left off below: GCCTAGCAC … GTCTTGATTCGCTTGACGCTGCTG
Target: Interferon regulatory factor 3, full length, phosphomimetic (IRF3, Homo sapiens, UniProt Q14653, residues 1-427, S386D/S396D/S398D/S402D/T404D/S405D)
Sequence of UniProt Q14653 (whole entry, unmodified, looked up): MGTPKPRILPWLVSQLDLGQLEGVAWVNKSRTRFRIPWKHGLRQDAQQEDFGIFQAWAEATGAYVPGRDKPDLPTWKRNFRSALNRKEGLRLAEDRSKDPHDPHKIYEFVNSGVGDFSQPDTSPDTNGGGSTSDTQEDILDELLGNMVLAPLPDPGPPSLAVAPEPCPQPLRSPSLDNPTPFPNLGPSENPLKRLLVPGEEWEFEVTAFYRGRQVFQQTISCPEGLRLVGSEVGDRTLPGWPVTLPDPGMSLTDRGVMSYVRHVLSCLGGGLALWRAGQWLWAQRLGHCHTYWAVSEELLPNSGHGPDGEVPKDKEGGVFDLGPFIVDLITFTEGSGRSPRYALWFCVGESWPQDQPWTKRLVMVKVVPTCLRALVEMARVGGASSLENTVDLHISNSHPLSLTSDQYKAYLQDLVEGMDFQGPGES
GACGATCTCAGAATGGAGACGTGCTAG: 0.706 z-score
GACGGTATCAGACTGGAGACGTGCTAG: 1.49 z-score
CTGGATCTCAGACTGTGTCCGTGCTAG: -0.123 z-score
TTAGAACTGAAACTGGATTAGTGCTAG: 1.68 z-score
GACGGTATCGGGACTGAGGACGTGCTA: 1.84 z-score
TCAGTTTTCTTTTCCATACTGTGCTAG: 7.05 z-score
GACCGTATCCTTTTCCTGACGTGCTAG: 6.95 z-score
GACGGTTTCGGACTGGGGAGGTGCTAG: 4.55 z-score
TTAGGTTCCCTTTTCCTCTAGTGCTAG: 7.57 z-score
TTAGATCTCAGTATAGATTAGTGCTAG: 0.176 z-score
TTAGCTTTCCTACTGCTTTAGTGCTAG: 2.63 z-score
GACGGTTTCGGATATCGGGACGTGCTA: 5.94 z-score
TGAGGTTTTCTAATGTTTTTGTGCTAG: 0.727 z-score
GACGGTATCGGTTTCGGTACGTGCTAG: 8.71 z-score
GACGGTCTCCTGTTCCTGACGTGCTAG: 0.962 z-score
GACGAACTGGGTACTGGAGACGTGCTA: -0.432 z-score
GACGGTTTGGGTCTCGGGACGTGCTAG: 0.164 z-score
GACGGTATCGGGCTTCGGGACGTGCTA: 0.971 z-score
TTAGATTTCACTATCGATTAGTGCTAG: 2.51 z-score
GACGGTCTGGACTATCGGGACGTGCTA: -0.0932 z-score
GACGATATCAGTTTCGACACGTGCTAG: 3.33 z-score
TTAGCACTGGGGACTGGGTTAGTGCTA: -1.13 z-score

Series 4 — method: RNA Bind-n-Seq; form: RNA; matrix: in vitro; concentration: 365 nM; reference: no-protein control; direction: higher = stronger binding; quantity: RBNS enrichment (R)
Target: RNA binding protein fox-1 homolog 2, RRM domain, GST-SBP tag (RBFOX2, Homo sapiens, UniProt O43251-10, residues 100-194)
Notes: natural RNA segment, single round, ends assumed
Constant ends, left off below: GGGAGUUCUACAGUCCGACGAUC … UGGAAUUCUCGGGUGCCAA
Construct (chain): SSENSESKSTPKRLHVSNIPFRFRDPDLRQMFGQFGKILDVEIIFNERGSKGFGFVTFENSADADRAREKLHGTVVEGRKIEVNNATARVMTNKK
UGUAGCCUUUGAAGGAUGCCCUGUGUAAUUAUUCAGUGCCACAAAUUGAAAGCUUCCAUGUUUAAUGUUAUCCUCUUGCUAUAUAAAUAAAGCAAAUAUAUUUAGGCCAG: 0.452
AAGUUGACCAUUCCAUGUCUCAAGUAUGAGGACCCAGGGACCCCAGGGAAUCUGUUUUCUAUUUACAAGUCUGACAUCUUAAUCCCCACUGCCAAAAUGCUCCGAAAUCU: 0.428
UGAGGCUACAAACAAUCUAUGGUUCCAAAUCCUAUGUGCUUACUGCCGUCUUCUCUUAGAAGGGGAUGCAGUACUGUACAAAGAUUGAGCUGGAUGUCGCAUUGCAUGUU: 3.56
GGCUUGCAGCUGGUGAUGGUCAAGAACUGACUACAAAACAGGAAUGGAUAGACUCUAUUUCCUUCCAUAUCUGUUCCUCUGUUCCUUUUCCCACUUUCUGGGUGGCUUUU: 0.239
ACCCCAUCAUUUAAAAAAUGGACCUGAUAAUAUGAAGCAUCUUCCUUGUAAUUGUCUCUGACCUUUUUAUCUGAGACCGGAAUUCAGGAUAGGAGUCUAGAUAUUUACCU: 0.711
GGUUUUUCUGUUAGCUUGGACCACUGCCUCAUCAGACAAUAUCAGCAGAUGUGCCUCAGUUUCCCCAUCAGACACCUACCUCACCAGGGCAUUGUGGCAGAAUUUUAGGA: 0.592
ACAGAUAACAUAAAAGUUCUGUUACCCUCAUUCUAUACAACCUAUGGAUUUCAUGUGUUACAAUAUCAGUUUCCAGAAUAAAGUGAGGGAAAUCAGGUCUUUAUUGAUAA: 0.302
CUCUUUUGUUCAGUACGUGUAACUUGAAGCUAAUUUGUACUACUGGAUAUCUGACUGGAGCCGCAGGUACAGAUCUGUAUUGUUCUUACUGAAACACAGCAUGGAAUUAA: 1.45
CCACGCUGGUCUUCUGAGAUUCCAAGUCCUUCCCCAGCUGACAUGCCCGUAGCCCCUUCCGACUCAGUGGGGCGAGCGCUCAACACGGAUCGCCCCCCCCUUCCCAGUUC: 0.341
UAGCUCAGCUUUCAGAGCGCUAACUCUAAAGGAAUUCACCUGAGCCUUGAGAGAGAACCUGGGCUAGGGCUAGAGUUAGGGCUACAUACUCCAAGGUGACCUCACAUUUG: 0.408
UUUUCCAAUUUAAAAUUUUGCUUUUUAUCCUGGCACUGGCAAAAAGAACUGUGAAAGUGAAAUUUUAUUCAGCCGACUGCCAGAGAAGUGGGAAUGGUAUAGGAUUGUCC: 0.626
UAGAUUAGGAUUAAAGUGGGUUUAAUCCAUUUUUAUAGCUGUAUGAAUUUUUCUAAACAGGAACAGCCAUUUGCAAAAUGGGUUUUCAUAGUGAUUGCAUCAAUUAUAAC: 1.34

Series 5 — target: CCND1, cyclin fold, Cln2 fusion (human); method: yeast growth competition, sequencing; matrix: yeast; notes: weak parent motif; reference: not given; direction: higher = stronger binding; quantity: normalised enrichment score
Starting sequence: E2F1 docking peptide (human); PPVKRRLDLETDH; partner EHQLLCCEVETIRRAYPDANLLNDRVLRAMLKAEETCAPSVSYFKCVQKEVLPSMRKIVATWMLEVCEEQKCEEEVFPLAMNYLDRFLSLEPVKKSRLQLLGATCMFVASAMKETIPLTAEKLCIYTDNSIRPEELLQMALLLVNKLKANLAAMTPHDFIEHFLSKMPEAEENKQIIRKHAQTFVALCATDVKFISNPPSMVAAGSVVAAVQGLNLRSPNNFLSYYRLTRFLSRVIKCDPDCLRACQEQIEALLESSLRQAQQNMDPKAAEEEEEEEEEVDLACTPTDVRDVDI
H13F: 0.0549
P2Y: 0.11
R6K: -0.0497
D8I: 1.03
P2C: 0.213
R6S: -0.0174
P2N: 0.354
R5A: 0.307
V3P: 0.81
D8N: 1.13
P1D: 0.352
D12E: 0.355
D12H: 0.149
V3N: 0.252
P2E: 0.661
H13A: 0.572
V3G: -0.235
D12K: 0.389
D12G: 0.365

Series 6 — method: protein binding microarray; form: double-stranded DNA, one strand shown; matrix: in vitro; concentration: not given; reference: not given; direction: higher = stronger binding; quantity: E-score
Target: Histone acetyltransferase KAT6A, winged helix 2, GST fusion (KAT6A, Homo sapiens, UniProt Q92794, residues 85-181)
Notes: 8-mer, flanks averaged, mean of 2 arrays, mostly near background
Construct (chain): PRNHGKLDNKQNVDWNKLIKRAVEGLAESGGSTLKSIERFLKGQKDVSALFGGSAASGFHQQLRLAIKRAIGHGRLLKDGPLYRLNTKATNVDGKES
AGCTGAAG: -0.0843
ACACAGTA: -0.0973
ACATGACA: -0.0737
ATTAGGGG: -0.0652
AGGTGTGC: -0.104
GTGGGGTA: -0.0197
ACATGTTC: -0.238
CTAAACAG: -0.075
ACAGTCCG: -0.117
AGCAGGCA: -0.0209
CGCAGTCC: 0.164
CAAGACAG: -0.0946
AATAACCC: -0.0895
AATATTGC: 0.0415
GGAGGTAC: -0.0926
CAACTAAA: 0.1
AATCCTGT: 0.0407
ATTGACGA: -0.0218
CAGAGAGA: 0.12
CGGTCTAA: -0.0691
CAACCGCC: 0.0175
AATTTTAA: 0.161
AATGGCCC: 0.0149
GTCAGACA: 0.02
GATATCGC: 0.105

Series 7 — method: universal PBM; form: double-stranded DNA, one strand shown; matrix: in vitro; concentration: 600 nM; direction: higher = stronger binding; quantity: E-score
Target: Sal-like protein 4, full length isoform A (SALL4, Homo sapiens, UniProt Q9UJQ4, residues 1-1053)
Sequence of UniProt Q9UJQ4 (whole entry, looked up): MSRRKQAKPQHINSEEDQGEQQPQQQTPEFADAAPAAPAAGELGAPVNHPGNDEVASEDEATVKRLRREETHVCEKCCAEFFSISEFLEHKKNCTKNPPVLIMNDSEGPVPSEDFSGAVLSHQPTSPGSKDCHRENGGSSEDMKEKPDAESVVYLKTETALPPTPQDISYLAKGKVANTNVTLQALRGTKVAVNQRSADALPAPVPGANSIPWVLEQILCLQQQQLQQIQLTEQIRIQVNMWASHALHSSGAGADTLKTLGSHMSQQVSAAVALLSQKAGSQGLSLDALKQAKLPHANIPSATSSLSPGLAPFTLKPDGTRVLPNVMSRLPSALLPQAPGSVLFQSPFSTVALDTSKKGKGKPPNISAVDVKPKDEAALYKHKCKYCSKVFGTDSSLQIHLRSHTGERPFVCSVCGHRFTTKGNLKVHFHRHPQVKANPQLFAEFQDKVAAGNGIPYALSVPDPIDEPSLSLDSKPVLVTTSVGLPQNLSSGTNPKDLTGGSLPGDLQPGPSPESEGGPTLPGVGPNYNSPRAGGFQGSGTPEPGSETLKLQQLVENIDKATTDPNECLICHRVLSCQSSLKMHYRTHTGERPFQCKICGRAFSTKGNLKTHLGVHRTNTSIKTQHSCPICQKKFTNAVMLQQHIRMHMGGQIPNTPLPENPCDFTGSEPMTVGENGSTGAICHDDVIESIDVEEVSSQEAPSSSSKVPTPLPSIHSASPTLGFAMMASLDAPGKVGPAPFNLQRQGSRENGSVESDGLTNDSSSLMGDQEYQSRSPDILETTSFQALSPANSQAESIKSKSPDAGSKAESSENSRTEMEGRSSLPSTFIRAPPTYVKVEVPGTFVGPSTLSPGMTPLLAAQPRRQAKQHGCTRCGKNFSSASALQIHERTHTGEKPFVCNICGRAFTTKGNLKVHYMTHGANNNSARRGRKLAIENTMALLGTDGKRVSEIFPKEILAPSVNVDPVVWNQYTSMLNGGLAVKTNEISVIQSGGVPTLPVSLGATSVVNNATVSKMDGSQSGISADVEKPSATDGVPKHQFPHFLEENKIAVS
Notes: 8-mer, flanks averaged, mean of replicates
CGATAGAC: 0.0124
GAAACGGC: -0.117
AACCGTCA: -0.151
ACGGGCAT: -0.143
ACGTCGCC: -0.324
GTGAGAGA: -0.0587
CACCGAGA: -0.199
AAATAGGA: 0.182
CAGGGATG: -0.0943
AGCCCGAT: -0.096
GGCAATGA: 0.0339
ACTAGCCC: -0.105
CCGAGTGA: -0.118
GTTGAGAA: -0.0268
TAATGATA: 0.378
CCGAGCAC: -0.196
AGGGCCCC: -0.353
ACATCCCG: -0.0714
GATCTCAC: -0.0817
ACGGAAAC: -0.208
AAGGTACT: 0.082
CCGCATGC: -0.254
CTTGCTTA: 0.0514
ATCTGCAA: 0.03

A few entries again (series 5):
R5A: 0.307
V3P: 0.81
D8N: 1.13
P1D: 0.352
D12E: 0.355
D12H: 0.149
V3N: 0.252
P2E: 0.661
H13A: 0.572
V3G: -0.235
D12K: 0.389
